Measured values from different studies.
Every numbered part comes from another study and shows a few of its results, in no order.

Study 1
Target: Interferon regulatory factor 7, full length, phosphomimetic (IRF7, Homo sapiens, UniProt Q92985, residues 1-503, S101K/S471D/S472D/S475D/S476D/S477D/S483D/S484D/S487D)
Method: protein-binding microarray
Molecule type: double-stranded DNA, one strand shown
Medium: in vitro
Tested at: 250 nM
Notes: 60-bp whole probe
Added: salmon DNA 0.4 mg/ml
Reference: random background probes
Direction: higher = stronger binding
Constant ends, left off below: GCCTAGCAC … GTGCTAGGTCTTGATTCGCTTGACGCTGCTG
Residues (chain): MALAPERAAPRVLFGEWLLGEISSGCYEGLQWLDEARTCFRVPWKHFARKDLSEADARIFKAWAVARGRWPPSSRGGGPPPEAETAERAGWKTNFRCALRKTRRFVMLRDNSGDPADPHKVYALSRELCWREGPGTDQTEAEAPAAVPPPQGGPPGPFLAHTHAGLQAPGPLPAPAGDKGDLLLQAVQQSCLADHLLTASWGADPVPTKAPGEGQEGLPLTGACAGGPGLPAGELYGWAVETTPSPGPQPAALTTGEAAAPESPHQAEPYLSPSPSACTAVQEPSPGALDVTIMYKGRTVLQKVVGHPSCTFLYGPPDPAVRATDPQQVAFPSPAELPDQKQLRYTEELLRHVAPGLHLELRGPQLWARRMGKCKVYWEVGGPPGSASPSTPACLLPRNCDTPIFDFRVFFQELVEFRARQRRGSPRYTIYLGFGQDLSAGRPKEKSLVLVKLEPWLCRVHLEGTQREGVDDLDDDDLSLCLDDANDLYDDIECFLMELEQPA
For `GACGATTTCATTTTCGAGAC`, the log fluorescence was 1.5 z-score.
`TTAGGACTGCTACTGCTATA` gave a log fluorescence of -0.406 z-score.
`TCAAGTCTTCTCCTCTAACT` has a log fluorescence of 0.0761 z-score.
`TCATTTTTCTTTAAAAGACT` gave a log fluorescence of 1.17 z-score.
`GACGAACTGAGTATCGAGAG` gave a log fluorescence of -0.143 z-score.
The log fluorescence of `TTAGGTCTCTTTTTCCTTTA` is reported as 2.46 z-score.
With `CTAGATTTCAGTTCCGATTA` the log fluorescence was 2 z-score.
`TTAGGTTTCAGTTCCGGTTA` gave a log fluorescence of 5.17 z-score.
`TCAGGTTCCCTTTTCCTTTA` has a log fluorescence of 3.91 z-score.

Study 2
Target: Centromere-binding protein 1, full length, N-terminal tag (CBF1, Saccharomyces cerevisiae, UniProt P17106, residues 1-351)
Chain of UniProt P17106 (whole entry, looked up): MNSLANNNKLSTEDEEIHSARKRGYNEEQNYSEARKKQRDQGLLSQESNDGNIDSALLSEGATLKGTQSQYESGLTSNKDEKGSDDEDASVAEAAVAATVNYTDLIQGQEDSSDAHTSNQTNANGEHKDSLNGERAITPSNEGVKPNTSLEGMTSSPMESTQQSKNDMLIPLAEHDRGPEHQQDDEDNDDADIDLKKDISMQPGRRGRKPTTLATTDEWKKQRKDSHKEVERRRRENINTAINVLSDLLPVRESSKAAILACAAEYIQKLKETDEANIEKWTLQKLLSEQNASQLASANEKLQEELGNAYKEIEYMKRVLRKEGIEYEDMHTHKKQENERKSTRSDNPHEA
Method: protein-binding microarray
Molecule type: double-stranded DNA, one strand shown
Medium: in vitro
Tested at: 0.8 µM
Notes: whole 60-bp probe, no competitor
Direction: higher = stronger binding
The fluorescence intensity of `CTATGCGGGCGTGGTGCTGATGTTCTTCGAGACTTCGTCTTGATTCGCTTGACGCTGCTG` is reported as 516 a.u.
`CTATCTGCTCCGCATCACGATACACGAGGTGCATTCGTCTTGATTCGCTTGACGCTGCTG` has a fluorescence intensity of 1370 a.u.
The fluorescence intensity of `GAATCAAGGAAAACTCGTGACATACAAATGCAATAGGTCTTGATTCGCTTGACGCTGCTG` is reported as 2480 a.u.
`CTAGGACATTATAACAACGTGCAGATGGTGATGTTCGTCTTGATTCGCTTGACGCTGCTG` has a fluorescence intensity of 674 a.u.
With `CTAAGGTGGCATAAACACAGATTAATAGTATTGTTCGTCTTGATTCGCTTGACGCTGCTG` the fluorescence intensity was 516 a.u.
For `GAACTCGAGTTCAATCACGTCACCAATAGTAATTAGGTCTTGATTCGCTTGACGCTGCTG`, the fluorescence intensity was 715 a.u.
For `GAAATCTGTGCCGGGCGGGTGATGTCCGGGCGATAGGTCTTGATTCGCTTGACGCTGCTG`, the fluorescence intensity was 497 a.u.
For `GAAAGAAAAGAAGGTGATGGAACCAATTTAGCTTAGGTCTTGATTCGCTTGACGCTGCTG`, the fluorescence intensity was 488 a.u.

Study 3
Target: Histone acetyltransferase KAT6A, winged helix 1, GST fusion (KAT6A, Homo sapiens, UniProt Q92794, residues 1-85)
Method: protein binding microarray
Molecule type: double-stranded DNA, one strand shown
Medium: in vitro
Tested at: not given
Notes: 8-mer, flanks averaged, mean of 2 arrays, mostly near background
Reference: not given
Direction: higher = stronger binding
Target sequence (chain): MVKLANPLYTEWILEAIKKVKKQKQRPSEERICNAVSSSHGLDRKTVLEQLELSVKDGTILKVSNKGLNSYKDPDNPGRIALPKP
With `CAGATCCA` the E-score was -0.226.
The E-score of `CTACAAAG` is reported as -0.192.
`TACCACTA` gave an E-score of -0.142.
The E-score of `TAGCTTAA` is reported as -0.125.
`CCGCCGCC` gave an E-score of 0.461.
`AAGCGAGG` has an E-score of 0.00212.
`AAAATAGG` gave an E-score of -0.143.

Other studies, line by line
For `PhoQ, residues 284 288 289 292 302 303 TSTLRA`, the fold induction was 11.5 (PhoP, residues 12 14 15 18 19 NYFRM (Escherichia coli, UniProt P23836); Sort-seq, refers to: YFP reporter; E. coli; PhoQ-PhoP variant library, added: 10 µM Mg2+; reference: high Mg2+ state, higher = stronger signaling).

Some of these lines once more (other studies, line by line):
For `PhoQ, residues 284 288 289 292 302 303 TSTLRA`, the fold induction was 11.5 (PhoP, residues 12 14 15 18 19 NYFRM (Escherichia coli, UniProt P23836); Sort-seq, refers to: YFP reporter; E. coli; PhoQ-PhoP variant library, added: 10 µM Mg2+; reference: high Mg2+ state, higher = stronger signaling).
